{"data": "Assay results of several laboratories", "JAK2 JH1": "Tyrosine-protein kinase JAK2, JH1 (JAK2, Homo sapiens, UniProt O60674)", "JAK2": "Tyrosine-protein kinase JAK2 (JAK2, Homo sapiens, UniProt O60674)", "note": "Compare with care: the assays were run in different laboratories.", "chain of UniProt O60674 (whole entry, looked up)": "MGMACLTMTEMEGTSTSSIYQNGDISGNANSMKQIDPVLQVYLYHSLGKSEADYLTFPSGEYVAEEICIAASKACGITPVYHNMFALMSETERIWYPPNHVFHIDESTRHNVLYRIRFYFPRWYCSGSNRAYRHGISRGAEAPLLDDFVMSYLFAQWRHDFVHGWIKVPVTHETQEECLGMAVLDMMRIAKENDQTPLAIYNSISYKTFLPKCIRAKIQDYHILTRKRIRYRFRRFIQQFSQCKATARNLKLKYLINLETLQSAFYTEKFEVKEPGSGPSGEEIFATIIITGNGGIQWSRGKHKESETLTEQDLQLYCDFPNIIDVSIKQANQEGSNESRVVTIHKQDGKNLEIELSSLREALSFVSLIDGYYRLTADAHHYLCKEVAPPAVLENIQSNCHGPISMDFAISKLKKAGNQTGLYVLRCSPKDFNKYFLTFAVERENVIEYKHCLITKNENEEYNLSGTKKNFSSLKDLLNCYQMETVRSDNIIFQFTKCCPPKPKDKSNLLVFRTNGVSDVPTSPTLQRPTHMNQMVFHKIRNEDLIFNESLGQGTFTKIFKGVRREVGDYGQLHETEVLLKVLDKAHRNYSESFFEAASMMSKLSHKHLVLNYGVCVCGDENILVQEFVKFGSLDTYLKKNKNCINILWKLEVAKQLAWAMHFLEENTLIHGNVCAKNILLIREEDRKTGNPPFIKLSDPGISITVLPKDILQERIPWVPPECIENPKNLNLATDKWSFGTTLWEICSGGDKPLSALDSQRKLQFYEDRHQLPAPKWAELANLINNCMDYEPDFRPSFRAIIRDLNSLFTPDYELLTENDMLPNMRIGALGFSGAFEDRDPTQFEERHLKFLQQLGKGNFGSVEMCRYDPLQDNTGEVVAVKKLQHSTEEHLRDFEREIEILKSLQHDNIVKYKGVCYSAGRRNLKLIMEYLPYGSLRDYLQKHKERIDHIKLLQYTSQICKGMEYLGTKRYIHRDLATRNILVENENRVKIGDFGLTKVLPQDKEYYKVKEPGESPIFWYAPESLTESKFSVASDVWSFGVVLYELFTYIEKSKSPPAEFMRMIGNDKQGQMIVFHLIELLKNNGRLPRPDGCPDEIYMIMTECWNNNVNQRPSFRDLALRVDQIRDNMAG"}
{"SMILES": "C[C@H](NCc1ccc(-c2ccc(C(F)(F)F)cc2)cc1)C(N)=O", "target": "JAK2 JH1", "assay": "cell-free assay, competition with immobilised ligand", "setting": "1 µM", "endpoint": "inhibition", "result": "28%"}
{"SMILES": "Nc1ccc(/C=C/C(=O)N2CCc3c(oc4c(-c5ccc(F)cc5)cc(-c5ccc(C(=O)N6CCC(F)(F)CC6)cn5)cc34)C2)cn1", "target": "JAK2 JH1", "assay": "binding, competition with immobilised ligand", "setting": "1 µM", "endpoint": "remaining binding", "result": "85%"}
{"SMILES": "CN(/N=C/c1ccccc1C(=O)O)c1nc(-c2ccccc2Cl)cs1", "target": "JAK2", "assay": "enzyme activity, inhibitor", "setting": "1 µM", "endpoint": "inhibition", "result": "0.28%"}
{"SMILES": "CCOC(=O)[C@@H]1Cc2c(cc([N+](=O)[O-])cc2[N+](=O)[O-])[C@H](O)[C@]12C(=O)Nc1ccc(Br)cc12", "target": "JAK2", "assay": "KINOMEscan", "setting": "100 nM", "how to read": "reference: DMSO control", "endpoint": "remaining binding", "result": "11%"}
{"SMILES": "CS(C)(=O)=Nc1ccc(-c2ccc(-c3nc4cc(O[C@@H]5CO[C@H]6[C@@H]5OC[C@H]6O)[nH]c4cc3F)cc2)cc1", "target": "JAK2", "assay": "enzyme activity, inhibitor", "setting": "10 µM", "endpoint": "inhibition", "result": "18%"}
{"SMILES": "O=C1NC(=O)c2c1c1cc(F)c[n+]3c1c1c2c2cc(O)ccc2[n]1[Ru-4]312([N]=C=S)[S+]3CC[S+]1CC[S+]2CC3 (stereo not drawn)", "target": "JAK2", "assay": "enzyme activity", "setting": "100 nM, human enzyme, with: 10 µM ATP", "how to read": "reference: untreated", "endpoint": "remaining activity", "result": "71%"}
{"SMILES": "O=C(N[C@@H]1c2ccccc2C[C@H]1N1CCCC1)c1ccc(-c2ccnc3[nH]ccc23)nc1", "target": "JAK2 JH1", "assay": "binding, competition with immobilised ligand", "setting": "3 µM", "endpoint": "remaining binding", "result": "2.1%"}
{"SMILES": "O=C(CN1CN(c2ccccc2)C2(CCN(C(=O)c3cnc4[nH]ncc4c3)CC2)C1=O)NCC(F)(F)F", "target": "JAK2", "assay": "inhibitor", "setting": "concentration not given", "endpoint": "inhibition", "result": "< 50%"}
{"SMILES": "CC(C)[C@H]1NC(=O)C[C@H]2/C=C/CCSSC[C@@H](NC1=O)C(=O)N[C@H](Cc1cccc3ccccc13)C(=O)NCC(=O)O2", "target": "JAK2", "assay": "enzyme activity, inhibitor", "setting": "10 µM", "endpoint": "inhibition", "result": "-5.7%"}
{"note": "Some of these lines once more:"}
{"SMILES": "O=C1NC(=O)c2c1c1cc(F)c[n+]3c1c1c2c2cc(O)ccc2[n]1[Ru-4]312([N]=C=S)[S+]3CC[S+]1CC[S+]2CC3 (stereo not drawn)", "target": "JAK2", "assay": "enzyme activity", "setting": "100 nM, human enzyme, with: 10 µM ATP", "how to read": "reference: untreated", "endpoint": "remaining activity", "result": "71%"}
